{"data": "Assay results gathered from unrelated publications", "note": "Lines come from different studies, so protocols differ. ± marks the error that the study gave."}
{"SMILES": "O=C1/C(=C/c2ccc(O)c(O)c2)Oc2c1c(O)cc(O)c2-c1ccc(O)c(O)c1", "test system": "mouse, CCl4-induced liver injury", "setting": "intragastric, 200 or 100 mg/kg, 10 days pretreatment", "quantity": "serum ALT level", "result": "decreased"}
{"SMILES": "O=C(CN1C(C(=O)c2ccccc2)=C(O)c2ccccc2S1(=O)=O)Nc1ccccc1Br", "test system": "alloxan-induced diabetic mouse, serum", "setting": "dose not given, day 21, 504 h, high dose", "quantity": "serum insulin", "result": "38 ± 2 pmol/L"}
{"SMILES": "COC(=O)C1OC(Oc2c(-c3ccccc3)oc3cc(O)c(O)c(O)c3c2=O)C(O)C(O)C1O (centres unmarked)", "test": "ELISA, item: IL-10", "test system": "Balb/c mouse, serum", "setting": "oral, 5 mg/kg, together with: LPS", "quantity": "serum concentration", "result": "64.6 pg/mL"}
{"SMILES": "C[C@H](NC(=O)CCCCCNC(=S)Nc1ccc2c(c1)C(=O)OC21c2ccc(O)cc2Oc2cc(O)ccc21)C(=O)N[C@@H](C)C(=O)N1CCC[C@H]1C(=O)N[C@@H](CCC(=O)O)C(=O)N1CCC[C@H]1C(=O)N[C@@H](CCC(=O)O)C(=O)N[C@H](C(=O)NCC(=O)N[C@@H](CCC(=O)O)C(=O)O)[C@@H](C)O", "test": "cytometric bead array", "test system": "C57BL/6J mouse, hepatic ischaemia-reperfusion, serum", "setting": "intravenous, 15 mg/kg", "how to read": "baseline: vehicle", "quantity": "serum inflammatory cytokine levels", "result": "decreased"}
{"SMILES": "CC(=O)N[C@@H](CC1CCCCC1)C(=O)N[C@H]1CSSC[C@@H](C(=O)N[C@@H](CCCNC(=N)N)C(N)=O)NC(=O)[C@H](CC2CCCCC2)NC(=O)[C@H](CCCNC(=N)N)NC(=O)[C@H](CCCNC(=N)N)NC(=O)[C@H](CC2CCCCC2)NC(=O)[C@H](CC(C)C)NC(=O)[C@H](CCCNC(=N)N)NC(=O)[C@@H](NC(=O)[C@H](CC2CCCCC2)NC(C)=O)CSSC[C@@H](C(=O)N[C@@H](CCCNC(=N)N)C(N)=O)NC(=O)[C@H](CC2CCCCC2)NC(=O)[C@H](CCCNC(=N)N)NC(=O)[C@H](CCCNC(=N)N)NC(=O)[C@H](CC2CCCCC2)NC(=O)[C@H](CC(C)C)NC(=O)[C@H](CCCNC(=N)N)NC1=O", "test system": "mouse bilateral renal ischemia-reperfusion", "setting": "1 mg/kg, 23 h, dosed 1 h after injury", "how to read": "baseline: vehicle", "quantity": "serum BUN and creatinine", "result": "decreased"}
{"SMILES": "CCCCCCCCN(CCC(=O)Nc1ccccc1)C(=O)c1ccccn1", "test system": "Lmna G609G/G609G mouse, serum", "setting": "intraperitoneal, 40 mg/kg", "how to read": "baseline: untreated", "quantity": "serum glucose level", "result": "increased"}
{"SMILES": "CN(C)c1cc2ccccc2c(N)n1", "test system": "ICR mouse, CCl4 liver fibrosis", "setting": "intraperitoneal, 1 and 3 mg/kg daily", "quantity": "serum AST", "result": "decreased"}
{"SMILES": "CCCCCCCCCCCCCCCC(=O)NCCCC[C@H](N)C(=O)N[C@@H](CC(=O)O)C(=O)N[C@H](C(=O)N[C@@H](Cc1c[nH]cn1)C(=O)N[C@@H](Cc1ccccc1)C(=O)N[C@@H](CCCNC(=N)N)C(=O)N[C@H](C(=O)N[C@@H](Cc1ccccc1)C(=O)N[C@@H](CCCNC(=N)N)C(=O)N[C@@H](CO)C(=O)N[C@@H](Cc1c[nH]cn1)C(=O)N[C@@H](CO)C(=O)N[C@@H](CC(=O)O)C(=O)N[C@@H](Cc1ccc(O)cc1)C(=O)N[C@@H](CCCNC(=N)N)C(=O)N[C@@H](CCCNC(=N)N)C(=O)N[C@H](C(=O)O)[C@@H](C)CC)[C@@H](C)O)[C@@H](C)O", "test system": "C57BL/6J mouse, MCD diet", "setting": "intraperitoneal, 0.6 nmol/g, 3 weeks, 3 times weekly", "quantity": "serum AST", "result": "191 ± 22.5 IU/L"}
{"note": "Repeated from above:"}
{"SMILES": "COC(=O)C1OC(Oc2c(-c3ccccc3)oc3cc(O)c(O)c(O)c3c2=O)C(O)C(O)C1O (centres unmarked)", "test": "ELISA, item: IL-10", "test system": "Balb/c mouse, serum", "setting": "oral, 5 mg/kg, together with: LPS", "quantity": "serum concentration", "result": "64.6 pg/mL"}
